Results gathered from unrelated publications.
A part holds a random share of what one study measured. Changes are numbered by the printed parent chain.

Set 1 — technique: universal PBM; form: double-stranded DNA, one strand shown; matrix: in vitro; tested at: not given; reading: higher = stronger binding
Target: Sal-like protein 4, full length isoform B (SALL4, Homo sapiens, UniProt Q9UJQ4-2, residues 1-616)
Notes: 8-mer, flanks averaged, mean of replicates
Construct (chain): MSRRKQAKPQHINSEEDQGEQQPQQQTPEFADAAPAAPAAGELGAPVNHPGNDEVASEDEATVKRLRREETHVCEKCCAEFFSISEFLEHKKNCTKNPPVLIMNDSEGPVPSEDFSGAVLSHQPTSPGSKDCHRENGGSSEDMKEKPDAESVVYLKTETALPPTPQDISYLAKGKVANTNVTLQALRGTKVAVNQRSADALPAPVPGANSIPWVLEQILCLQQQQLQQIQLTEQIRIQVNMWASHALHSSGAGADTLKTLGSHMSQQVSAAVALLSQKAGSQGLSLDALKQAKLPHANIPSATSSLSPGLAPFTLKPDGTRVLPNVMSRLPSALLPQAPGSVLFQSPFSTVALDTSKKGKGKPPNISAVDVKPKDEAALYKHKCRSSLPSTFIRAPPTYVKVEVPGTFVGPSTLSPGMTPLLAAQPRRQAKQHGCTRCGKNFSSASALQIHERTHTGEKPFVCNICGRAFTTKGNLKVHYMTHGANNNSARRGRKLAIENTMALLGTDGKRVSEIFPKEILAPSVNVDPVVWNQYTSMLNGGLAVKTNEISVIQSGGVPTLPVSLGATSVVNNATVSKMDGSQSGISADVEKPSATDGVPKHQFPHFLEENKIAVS
| Sequence | E-score |
| --- | --- |
| CGGCTTGC | -0.339 |
| CCAGCAGA | -0.0935 |
| CCCGCCGG | -0.363 |
| CCAACCCG | -0.346 |
| AGCATATA | 0.299 |
| TACAGAGA | 0.00735 |
| ACACACCG | -0.118 |
| ACCAGGGA | -0.199 |
| ACCTGTAC | 0.067 |
| GCGCGGCA | -0.254 |
| ACAGCCCA | -0.132 |
| AATTCTCT | -0.0128 |
| ACAAGGGC | -0.218 |
| AATGCGAC | -0.0788 |
| ATCTAACA | 0.134 |
| CAACCTCA | -0.0603 |
| GTCGGGGA | -0.269 |
| TAACGCCA | 0.0876 |
| GACCAAAA | 0.22 |
| CACACTGC | -0.208 |

Set 2 — technique: RNA Bind-n-Seq; form: RNA; matrix: in vitro; tested at: 1 µM; notes: whole 134-nt RNA, ends assumed; together with: 150 mM KCl; baseline: input library; reading: higher = stronger binding
Target: Ras GTPase-activating protein-binding protein 1, RRM domain (G3BP1, Homo sapiens, UniProt Q13283)
UniProt Q13283, sequence (whole entry, looked up): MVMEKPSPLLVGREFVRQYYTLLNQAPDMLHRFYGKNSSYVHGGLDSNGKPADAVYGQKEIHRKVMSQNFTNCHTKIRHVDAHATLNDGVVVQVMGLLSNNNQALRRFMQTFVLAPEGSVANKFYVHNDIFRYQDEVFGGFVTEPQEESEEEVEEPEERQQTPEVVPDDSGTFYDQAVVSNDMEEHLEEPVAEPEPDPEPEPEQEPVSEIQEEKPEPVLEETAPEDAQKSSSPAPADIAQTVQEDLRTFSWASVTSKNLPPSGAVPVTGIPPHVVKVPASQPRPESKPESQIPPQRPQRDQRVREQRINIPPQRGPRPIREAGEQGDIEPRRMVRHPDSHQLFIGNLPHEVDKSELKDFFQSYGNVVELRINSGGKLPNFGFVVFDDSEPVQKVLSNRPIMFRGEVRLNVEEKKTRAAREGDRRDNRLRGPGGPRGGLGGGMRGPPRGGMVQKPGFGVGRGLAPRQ
Shared flanks, not repeated: GGGAGUUCUACAGUCCGACGAUC … UGGAAUUCUCGGGUGUCAAGG
| Sequence | log2 enrichment |
| --- | --- |
| CAAGUCCUGUGCUACACAUCGUAUGUACCGAAUCGGGGUUUGGGGAGGGGAGGGGAAAGUAUUAUGUUACGCCGUUCGGAUCUGCACUUC | 0.915 |
| UAGUGAAAUUUCUAAUAUAUAUAUUUUUUUCUUUAGGAGAAGAAACGAAUGCAUCAGAUCAACAGAAUGAACCCCAGUUAGGCCUGAAAG | -0.819 |
| CACAGACAACACGCACCCACACAGACACAGAGGGAAGGGGUUGAGAUGGGGACAGGGUGCACAGCAGGGCGGGGUAGGACCCCAGCCCCU | -0.0306 |
| UCAAGUCCUGUGCUACACAUCGUAUGUACCGAAUCGGCCCGGCCCGGGCCCGGGAAAGUAUUAUGUUACGCCGUUCGGAUCUGCACUUCC | -0.449 |
| GCAGGAAGAAAAAACAAAUGGAAAUGCUUCGGAUAGUGGCAGGGGUGGGGGUUGCUAAGGAAAGGGUGGGAUGGGAGUGGGUAAAGAGUU | 1.5 |
| UGGGAGGUGGAUUUUGUUUAUUUUUUUAGCUCAUUUCCAGGGGUGGGAAUUUGUUUUUAAUAUGUGUCAUGAAUAAAGUUGUUUUUGAAA | 1.36 |
| UAACUUUAGAGGAGGAUCUGAUGGAUAUGGCAGUGGACGUGGAUUUGGGGAUGGCUAUAAUGGGUAUGGAGGAGGACCUGGAGGUGGUAA | -0.176 |
| UCAAGUCCUGUGCUACACAUCGUAUGUACCGAAUCGGAGGAAAGGUUUUUUUGGAAAGUAUUAUGUUACGCCGUUCGGAUCUGCACUUCC | -0.309 |
| UCCUCAAGUCCUGUGCUACACAUCGUAUGUACCGAAUCGGGAGGGGAGGAGGAAAGUAUUAUGUUACGCCGUUCGGAUCUGCACUUCCAG | -0.168 |
| UUAGGCACUUGUUGGGCUCAUCACCGUUGUGUGGAGUGGUCACUAGGAGUAUGCCAGAUGGAAGAACCAUUGUUAGUGAACGUGGACAAA | -0.231 |
| AGUCCUGUGCUACACAUCGUAUGUACCGAAUCAAACCCCCCCAAACCCAAACCCAAAAAAGUAUUAUGUUACGCCGUUCGGAUCUGCACU | -0.248 |
| UCAAGUCCUGUGCUACACAUCGUAUGUACCGAAUCGGGAAGGGGAAGGAAGGGGAAAGUAUUAUGUUACGCCGUUCGGAUCUGCACUUCC | 0.536 |
| UCCUGUGCUACACAUCGUAUGUACCGAAUCAAAUUUUUUUAAACCCCCAAAUUUUUAAAAAAGUAUUAUGUUACGCCGUUCGGAUCUGCA | -0.609 |
| CAAGUCCUGUGCUACACAUCGUAUGUACCGAAUCGGUUUGGUUUGGGGUUUGGGGAAAGUAUUAUGUUACGCCGUUCGGAUCUGCACUUC | -0.272 |

Set 3 — target: CCNA2, cyclin fold, Cln2 fusion (human); technique: yeast growth competition, sequencing; matrix: yeast; notes: strong parent motif; baseline: not given; reading: higher = stronger binding
Starting sequence: RBL1 docking peptide (human); GSAKRRLFGEDPP
| Substitution | normalised enrichment score |
| --- | --- |
| GSAKRRLFFEDPP [G9F] | 6.59 |
| GSAKIRLFGEDPP [R5I] | 0.883 |
| GSAKERLFGEDPP [R5E] | 0.323 |
| GSAKRRLFMEDPP [G9M] | 6.14 |
| GSKKRRLFGEDPP [A3K] | 2.13 |
| GSAFRRLFGEDPP [K4F] | 3.5 |
| GYAKRRLFGEDPP [S2Y] | 4.58 |
| GSAKRRLFGMDPP [E10M] | 5.28 |
| GSAKRRLFGEDPQ [P13Q] | 5.31 |
| GMAKRRLFGEDPP [S2M] | 5.54 |
| GSAKRRLFGEDVP [P12V] | 5.56 |
| GSAQRRLFGEDPP [K4Q] | 2.79 |
| PSAKRRLFGEDPP [G1P] | 6.45 |
| GSAWRRLFGEDPP [K4W] | 2.09 |
| ASAKRRLFGEDPP [G1A] | 5.61 |
| NSAKRRLFGEDPP [G1N] | 5.57 |
| GTAKRRLFGEDPP [S2T] | 5.7 |

Set 4 — technique: protein-binding microarray; form: double-stranded DNA, one strand shown; matrix: in vitro; tested at: 250 nM; notes: 60-bp whole probe; together with: salmon DNA 0.4 mg/ml; baseline: random background probes; reading: higher = stronger binding; shared flanks, not repeated: GCCTAGCAC … GTCTTGATTCGCTTGACGCTGCTG
Target: Interferon regulatory factor 5, full length, phosphomimetic (IRF5, Homo sapiens, UniProt Q13568-2, residues 1-514, K96S/S451D/S453D/S456D/S462D)
| Sequence | log fluorescence |
| --- | --- |
| TTAGGTTTCGGTTTCCGTTAGTGCTAG | 10.7 z-score |
| CTTTCTTTTTTTCTTTTATTGTGCTAG | 2.89 z-score |
| TTAGGTATCGACTTTCGGCTAGTGCTA | 8.4 z-score |
| GTCGGTATCGACACTGGGGACGTGCTA | 2.07 z-score |
| TTAGAACTTAGTTTCGATTAGTGCTAG | 10.1 z-score |
| GAGGATTTCGGGTATCGAGACGTGCTA | 3.67 z-score |
| TCAACTTTCTTTCAAATACTGTGCTAG | 3.17 z-score |
| GACGGTATCCTTTTCCTGCCGTGCTAG | 0.339 z-score |
| GGCGATATCAGTCTCGAGACGTGCTAG | 0.813 z-score |
| TTAGGTATGGACTATCGGTTAGTGCTA | 5.13 z-score |
| TCAATATTCATTTTATTACTGTGCTAG | 1.16 z-score |
| GACGGCCTGGGGTATCGGGACGTGCTA | -0.295 z-score |
| CTTCATGTTGCTCTCCGGGGGTGCTAG | 1.32 z-score |
| TTAGATATCAGGTATCGATTAGTGCTA | 4.52 z-score |
| GGAGGTCTGGATGTGCCGCGGTGCTAG | -0.755 z-score |
| TTAGGTATCGGTATCGGTTCGTGCTAG | 8.8 z-score |
| TCAGATTTCAATTAAAAACTGTGCTAG | 1.32 z-score |
| TCACTTTCCAATTGTCCTACTGTGCTA | 1.55 z-score |
| TCACTCTTCTTTTGCTAACTGTGCTAG | 1.45 z-score |
| TTAGGTTTCAGGTATCGGTTAGTGCTA | 6.38 z-score |

Set 5 — technique: RNA Bind-n-Seq; form: RNA; matrix: in vitro; tested at: 365 nM; baseline: no-protein control; reading: higher = stronger binding
Target: RNA binding protein fox-1 homolog 2, RRM domain, GST-SBP tag (RBFOX2, Homo sapiens, UniProt O43251-10, residues 100-194)
Notes: natural RNA segment, single round, ends assumed
Shared flanks, not repeated: GGGAGUUCUACAGUCCGACGAUC … UGGAAUUCUCGGGUGCCAA
Target sequence (chain): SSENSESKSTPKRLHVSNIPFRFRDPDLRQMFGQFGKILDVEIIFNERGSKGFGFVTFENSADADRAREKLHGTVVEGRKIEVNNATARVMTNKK
| Sequence | RBNS enrichment (R) |
| --- | --- |
| GACAGCACAUGUGGGAAGUCAACGCAAGCCUCUCCCCUCCGUGGCUCUGGUUUCUUGGCUGCAUGGUUCUCUGUAAAUUCAGUUGUAGCCACUGUCUUUGGCUAGAAAGC | 1.09 |
| UCAAGGAAACAGUGUGGUGCAAGUACUGCUGUUCUAGCCCCCAAAGAGUUUUCUGUACAAAAUUUUGAGAACCAAUAAAGAUGGAAGGGAGAACUUGGAAUGUUUGAACC | 0.697 |
| UCUUUUCCAGAGUGUGGAUUUGAACUACUUCCCCCUGCAAAGGGCCGCGUGCACCCUGCCGAGCUGCGUAUAUUCUGUACUGUGUACAAUAAAGAAGAUUGCUUUCCUUA | 0.189 |
| CUCCUGAUUUCCCUAAGGAGCCUGGGAUGAUGUUGGUCAAAUGACCUAGAAACAAGGAUUCUACCUGAACUGAAAGGACUGUGUGACCUCCCCCAAGCCAACCACUUUCA | 0.323 |
| GCAGAAGCCAAAUUUUUUGUAUAUUAAAGCACCAAAUUCAUGUACAGCAUGCAUCACGGAUCAAUAGACUGUACUUAUUUUCCAAUAAAAUUUUCAAACUUUGUACUGUU | 2.2 |
| GGAGCCCUUUCCUUUGAGAAUACAAGCAUGUCUCUGAGGCAUCCUCAGACCUGGAGUGCUCCCCAACCCCCACCUAUCAAAGCUGCUUUCAAGGUCAGGGUCAGCCCCAG | 2.99 |
| AUUGUAAAGACUGGGAUGGUUGUGUGGAAAACUUUUCUUGAGAGAACCUAUUGAAAGGAAUUUGUUGUCACCUUCUUAACUAGAAUAGUUGUUGAAGGUACCGCUUAAGC | 0.505 |
| GAGUGGGAAGGAAGGGGUUGAGACGCGUGCUUUGAGAGCCUGUGAGGCUGCUCCGUCCUUGCCAGCUGCUCCCUAGUCCUGAGUGGUCCUUGGUGAGGAGCAGCAAGAUG | 0.411 |
| GUCUGGACAGUGGUUCUGGAAUGAAUUCUAUCUAGUAAAUUAGUAAAUGUGCUGUUUUGUAUAAAGCAUGAUAAUUACUUUUUAACAGAAGUUCAUUUUUAAAGAUUACU | 0.469 |
| CACACGGACUCCCGGGCCACGCCCCAGCCCGACAAUGUCGAGUAUAUUAUUAUUAAUAUUAUUAUGAAUUUUUGUAAGAAACCGAGGCGAUGCCACGCUUUGCUGCUACC | 0.456 |
| GAGGGAGAACCCAAUUUUCAAUUAUGUUGGCUUUUUAUAAAGCUUGAGUUAUGUAAGAUUUAAAUAAAAGUUUGCUACCAAGAUGAUUGCCUUAUUGAAUAGGUCACUAU | 2.44 |
| UCCAUUUGGCCUGUGAAGGAAGUAACCUCACUUUGCUGUCUGAGCAGCAUGUAUUCCUGGCAUGGGCUCUCCUAGUGGUCCAUGUGCAUCCUUGCGCAUGUGCACUCGCU | 3.23 |

Some of these lines once more (set 3):
| Substitution | normalised enrichment score |
| --- | --- |
| GYAKRRLFGEDPP [S2Y] | 4.58 |
| GSAKRRLFGMDPP [E10M] | 5.28 |
| GSAKRRLFGEDPQ [P13Q] | 5.31 |
| GMAKRRLFGEDPP [S2M] | 5.54 |
| GSAKRRLFGEDVP [P12V] | 5.56 |
| GSAQRRLFGEDPP [K4Q] | 2.79 |
| PSAKRRLFGEDPP [G1P] | 6.45 |
| GSAWRRLFGEDPP [K4W] | 2.09 |
| ASAKRRLFGEDPP [G1A] | 5.61 |
| NSAKRRLFGEDPP [G1N] | 5.57 |
| GTAKRRLFGEDPP [S2T] | 5.7 |
